Results from different studies.
Every numbered part comes from another study and shows a few of its results, in no order. Several values in a cell are separate wells, animals, samples, runs or records.
Chain of UniProt P21397 (whole entry, looked up): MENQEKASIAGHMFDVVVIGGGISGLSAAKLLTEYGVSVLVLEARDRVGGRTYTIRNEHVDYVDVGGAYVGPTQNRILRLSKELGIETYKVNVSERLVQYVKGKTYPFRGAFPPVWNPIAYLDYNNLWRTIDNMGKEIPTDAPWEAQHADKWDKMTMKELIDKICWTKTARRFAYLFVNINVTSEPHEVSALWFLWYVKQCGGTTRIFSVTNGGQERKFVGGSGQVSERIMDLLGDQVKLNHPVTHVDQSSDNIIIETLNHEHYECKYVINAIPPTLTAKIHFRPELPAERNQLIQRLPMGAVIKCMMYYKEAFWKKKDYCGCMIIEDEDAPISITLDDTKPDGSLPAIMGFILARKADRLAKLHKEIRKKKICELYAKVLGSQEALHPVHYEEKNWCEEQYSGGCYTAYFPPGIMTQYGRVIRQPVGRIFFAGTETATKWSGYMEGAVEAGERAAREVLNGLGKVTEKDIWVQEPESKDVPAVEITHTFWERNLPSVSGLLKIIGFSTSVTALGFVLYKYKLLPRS
Chain of UniProt P27338 (whole entry, looked up): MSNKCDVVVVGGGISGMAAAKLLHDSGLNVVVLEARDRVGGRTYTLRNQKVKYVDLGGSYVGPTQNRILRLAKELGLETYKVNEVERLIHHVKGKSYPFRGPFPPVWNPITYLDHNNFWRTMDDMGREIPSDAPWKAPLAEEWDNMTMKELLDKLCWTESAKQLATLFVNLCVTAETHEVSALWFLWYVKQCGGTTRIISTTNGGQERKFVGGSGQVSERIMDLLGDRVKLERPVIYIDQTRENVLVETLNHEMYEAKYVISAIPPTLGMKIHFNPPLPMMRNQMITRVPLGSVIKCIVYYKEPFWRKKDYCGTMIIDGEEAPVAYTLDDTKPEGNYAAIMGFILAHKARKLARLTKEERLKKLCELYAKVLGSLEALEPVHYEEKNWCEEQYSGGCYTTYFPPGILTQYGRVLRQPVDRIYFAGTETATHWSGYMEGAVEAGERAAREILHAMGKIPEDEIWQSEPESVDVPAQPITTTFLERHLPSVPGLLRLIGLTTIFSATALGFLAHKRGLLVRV
Chain of UniProt Q13163 (whole entry, looked up): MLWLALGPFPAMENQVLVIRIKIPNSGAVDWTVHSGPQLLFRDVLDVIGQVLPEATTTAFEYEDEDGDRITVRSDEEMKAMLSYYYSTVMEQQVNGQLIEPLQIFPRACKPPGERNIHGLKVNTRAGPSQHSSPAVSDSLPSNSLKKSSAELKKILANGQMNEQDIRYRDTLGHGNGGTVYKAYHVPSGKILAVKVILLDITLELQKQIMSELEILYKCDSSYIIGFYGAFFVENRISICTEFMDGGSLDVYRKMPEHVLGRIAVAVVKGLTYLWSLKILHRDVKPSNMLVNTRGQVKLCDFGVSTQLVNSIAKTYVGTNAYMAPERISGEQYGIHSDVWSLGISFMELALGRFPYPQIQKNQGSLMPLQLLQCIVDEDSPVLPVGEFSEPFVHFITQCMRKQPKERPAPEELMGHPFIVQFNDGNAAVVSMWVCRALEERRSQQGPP

Series 1
Structure (SMILES): COc1cc(C(=O)OCCCN2CCCN(CCCOC(=O)c3cc(OC)c(OC)c(OCc4ccc([N+](=O)[O-])cc4)c3)CC2)cc(OC)c1OC
Host: mice, male and female, formalin pain
Route: intrathecal
Together with: formalin 5%, 20 µL intraplantar
Direction: higher = more pain
| dose | time | licking and flinching time |
| --- | --- | --- |
| 100 nmol | 15-20 min after formalin | 34.7 a.u. and 71.7 a.u. and 27.6 a.u. and 28.1 a.u. and 18.7 a.u. and 11.1 a.u. and 38.1 a.u. and 10.7 a.u. |
| 1 nmol | 35-40 min after formalin | 2.2 a.u. and 65.7 a.u. and 3.88 a.u. and 25.5 a.u. and 11.9 a.u. and 27.5 a.u. and 22.2 a.u. and 21.6 a.u. |
| 10 nmol | 0-5 min after formalin | 181 a.u. and 214 a.u. and 158 a.u. and 191 a.u. and 199 a.u. and 177 a.u. and 164 a.u. |
| 1 nmol | 5-10 min after formalin | 23.5 a.u. and 37.9 a.u. and 94 a.u. and 12.9 a.u. and 10.1 a.u. and 68.8 a.u. and 60.5 a.u. and 29.2 a.u. |
| 10 nmol | 25-30 min after formalin | 52.1 a.u. and 58 a.u. and 65 a.u. and 16.6 a.u. and 24.4 a.u. and 17.8 a.u. and 60.8 a.u. and 65.3 a.u. |

Series 2
SMILES: COCCCCCCC1CC2C(CCC3(C)C(O)CCC23)c2ccc(O)cc21 (stereo not drawn)
Method: microarray
Relative to: untreated
| cell line | refers to | concentration | mRNA level ratio |
| --- | --- | --- | --- |
| A549 | ISG20L1 | 50 µM | 2.21 |
| SK-OV-3 | GADD45A | 10 µM | 0.809 |
| PANC-1 | ISG20L1 | 10 µM | 0.983 |

Series 3
Target: Cyclin-dependent kinase 12, with cyclin K (CDK12, Homo sapiens, UniProt Q9NYV4)
Chain of UniProt Q9NYV4 (whole entry, looked up): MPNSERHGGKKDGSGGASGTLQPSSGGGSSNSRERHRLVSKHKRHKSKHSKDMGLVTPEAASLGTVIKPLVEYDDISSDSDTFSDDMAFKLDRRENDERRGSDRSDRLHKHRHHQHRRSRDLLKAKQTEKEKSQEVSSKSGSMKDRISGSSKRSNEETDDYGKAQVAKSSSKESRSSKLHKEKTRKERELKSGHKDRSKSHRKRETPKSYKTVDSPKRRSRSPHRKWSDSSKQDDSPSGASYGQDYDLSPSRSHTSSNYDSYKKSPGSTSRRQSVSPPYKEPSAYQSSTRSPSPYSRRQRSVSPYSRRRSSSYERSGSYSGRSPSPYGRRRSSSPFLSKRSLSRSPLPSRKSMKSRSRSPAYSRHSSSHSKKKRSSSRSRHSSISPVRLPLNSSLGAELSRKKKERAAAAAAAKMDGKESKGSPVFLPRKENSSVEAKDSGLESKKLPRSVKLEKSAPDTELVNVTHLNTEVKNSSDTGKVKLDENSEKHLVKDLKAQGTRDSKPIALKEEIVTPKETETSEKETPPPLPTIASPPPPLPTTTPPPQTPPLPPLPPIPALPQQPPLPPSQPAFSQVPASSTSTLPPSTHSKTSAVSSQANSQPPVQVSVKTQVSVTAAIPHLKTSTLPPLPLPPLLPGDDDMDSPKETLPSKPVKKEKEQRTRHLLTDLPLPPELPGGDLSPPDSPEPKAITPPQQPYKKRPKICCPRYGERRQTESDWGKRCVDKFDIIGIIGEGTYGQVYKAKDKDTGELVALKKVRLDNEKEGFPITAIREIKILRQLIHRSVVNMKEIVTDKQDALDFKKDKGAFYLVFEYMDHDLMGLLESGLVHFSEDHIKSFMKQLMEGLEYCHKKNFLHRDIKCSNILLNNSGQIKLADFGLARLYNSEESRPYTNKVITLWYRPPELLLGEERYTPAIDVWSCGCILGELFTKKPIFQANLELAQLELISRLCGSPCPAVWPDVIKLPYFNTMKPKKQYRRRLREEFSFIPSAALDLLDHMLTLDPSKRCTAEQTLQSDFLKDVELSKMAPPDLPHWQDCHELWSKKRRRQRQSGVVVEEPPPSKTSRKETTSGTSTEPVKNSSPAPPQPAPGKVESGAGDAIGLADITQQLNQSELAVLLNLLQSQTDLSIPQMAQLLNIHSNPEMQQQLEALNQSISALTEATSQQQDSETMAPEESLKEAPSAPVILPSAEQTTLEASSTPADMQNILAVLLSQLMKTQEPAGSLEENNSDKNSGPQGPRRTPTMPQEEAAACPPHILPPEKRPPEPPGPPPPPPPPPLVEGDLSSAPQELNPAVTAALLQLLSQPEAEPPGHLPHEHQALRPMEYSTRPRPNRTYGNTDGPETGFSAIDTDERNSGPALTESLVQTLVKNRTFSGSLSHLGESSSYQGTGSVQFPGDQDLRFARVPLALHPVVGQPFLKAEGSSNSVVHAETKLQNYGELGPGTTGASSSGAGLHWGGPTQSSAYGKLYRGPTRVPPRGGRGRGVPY
Observed: kinase activity
Mode: inhibitor
Method: ADP-Glo
Concentration: 2 µM
| Compound | inhibition [%] |
| --- | --- |
| CCn1cnc2c(NCc3nc4cc(Cl)c(Cl)cc4[nH]3)nc(N3CCN(C(=O)c4ccncc4)CC3)nc21 | 91.9 |
| CCn1cnc2c(NCc3nc4cc(Cl)c(Cl)cc4[nH]3)nc(N3CCN(C(=O)c4ccccn4)CC3)nc21 | 87.6 |
| Cn1cc(-n2cnc3c(NCc4nc5cc(Cl)c(Cl)cc5[nH]4)nc(N4CCNCC4)nc32)cn1 | 72.6 |
| CCn1cnc2c(NCc3nc4cc(Cl)c(Cl)cc4[nH]3)nc(N3CCN(Cc4ccncc4)CC3)nc21 | 74.3 |
| CCn1cnc2c(NCc3nc4cc(Cl)c(Cl)cc4[nH]3)nc(N3CCN(S(C)(=O)=O)CC3)nc21 | 89 |
| CCn1cnc2c(NCc3nc4cc(Cl)c(Cl)cc4[nH]3)nc(N3CCn4ncnc4C3)nc21 | 92.9 |
| CC(=O)N1CCN(c2nc(NCc3nc4cc(Cl)c(Cl)cc4[nH]3)c3ncn(C(C)C)c3n2)CC1 | 13.5 |
| CC(=O)N1CCN(c2nc(NCc3nc4cc(Cl)c(Cl)cc4[nH]3)c3ncn(-c4cnn(C)c4)c3n2)CC1 | 87.6 |
| CCn1cnc2c(NCc3nc4cc(F)c(F)cc4[nH]3)nc(N3CCn4ncnc4C3)nc21 | 86.2 |

Series 4
Structure (SMILES): Cc1ccc(O)c(C)c1-c1cnc2[nH]c(-c3cnc(N4CCC(CN5CCC(c6ccc(NC7CCC(=O)NC7=O)cc6F)CC5)CC4)nc3)cc2c1C#N (stereo not drawn)
Target: Membrane-associated tyrosine- and threonine-specific cdc2-inhibitory kinase (PKMYT1, Homo sapiens, UniProt Q99640)
Chain of UniProt Q99640 (whole entry, looked up): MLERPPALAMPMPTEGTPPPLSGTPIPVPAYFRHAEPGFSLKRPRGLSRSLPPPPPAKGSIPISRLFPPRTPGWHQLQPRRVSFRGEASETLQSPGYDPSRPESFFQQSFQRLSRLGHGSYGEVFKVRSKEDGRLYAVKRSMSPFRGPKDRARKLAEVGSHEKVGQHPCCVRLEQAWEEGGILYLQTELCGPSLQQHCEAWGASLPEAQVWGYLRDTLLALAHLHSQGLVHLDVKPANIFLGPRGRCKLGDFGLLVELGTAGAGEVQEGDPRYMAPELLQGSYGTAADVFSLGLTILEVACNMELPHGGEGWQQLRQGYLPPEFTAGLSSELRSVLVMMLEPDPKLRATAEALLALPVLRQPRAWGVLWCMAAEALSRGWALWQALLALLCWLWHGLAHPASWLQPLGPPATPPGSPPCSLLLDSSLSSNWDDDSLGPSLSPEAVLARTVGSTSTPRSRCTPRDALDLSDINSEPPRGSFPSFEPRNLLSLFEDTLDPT
| observed | mode | method | concentration | inhibition [%] |
| --- | --- | --- | --- | --- |
| cell-free assay | inhibitor | TR-FRET | 51 pM | -4.59 |
| – | – | – | 0.000152 µM | -7.85 |
| cell-free assay | inhibitor | TR-FRET | 152 pM | -3.62 |
| cell-free assay | inhibitor | TR-FRET | 460 pM | 0.23 |
| cell-free assay | inhibitor | TR-FRET | 1 µM | 98.2 |
| – | – | – | 0.00412 µM | 38.5 |
| cell-free assay | inhibitor | TR-FRET | 1.37 nM | 13 |

Series 5
SMILES: C[C@@H]1CN(c2ccc(-c3cc(C(=O)NCCOCCOCCOCCOCCNC(=O)/C=C/c4[nH]cc(C(=O)N[C@@H](CC(N)=O)c5ccc(F)c(Cl)c5)c4-c4ccc(Cl)cc4F)ccc3F)cc2NC(=O)c2c[nH]c(=O)cc2C(F)(F)F)C[C@H](C)N1C
Observed: thermal unfolding
Method: differential scanning fluorimetry
Concentration: 5.5 µM
Direction: higher = more unfolded
DCAF1: DDB1- and CUL4-associated factor 1 (DCAF1, Homo sapiens, UniProt Q9Y4B6)
Chain of UniProt Q9Y4B6 (whole entry, looked up): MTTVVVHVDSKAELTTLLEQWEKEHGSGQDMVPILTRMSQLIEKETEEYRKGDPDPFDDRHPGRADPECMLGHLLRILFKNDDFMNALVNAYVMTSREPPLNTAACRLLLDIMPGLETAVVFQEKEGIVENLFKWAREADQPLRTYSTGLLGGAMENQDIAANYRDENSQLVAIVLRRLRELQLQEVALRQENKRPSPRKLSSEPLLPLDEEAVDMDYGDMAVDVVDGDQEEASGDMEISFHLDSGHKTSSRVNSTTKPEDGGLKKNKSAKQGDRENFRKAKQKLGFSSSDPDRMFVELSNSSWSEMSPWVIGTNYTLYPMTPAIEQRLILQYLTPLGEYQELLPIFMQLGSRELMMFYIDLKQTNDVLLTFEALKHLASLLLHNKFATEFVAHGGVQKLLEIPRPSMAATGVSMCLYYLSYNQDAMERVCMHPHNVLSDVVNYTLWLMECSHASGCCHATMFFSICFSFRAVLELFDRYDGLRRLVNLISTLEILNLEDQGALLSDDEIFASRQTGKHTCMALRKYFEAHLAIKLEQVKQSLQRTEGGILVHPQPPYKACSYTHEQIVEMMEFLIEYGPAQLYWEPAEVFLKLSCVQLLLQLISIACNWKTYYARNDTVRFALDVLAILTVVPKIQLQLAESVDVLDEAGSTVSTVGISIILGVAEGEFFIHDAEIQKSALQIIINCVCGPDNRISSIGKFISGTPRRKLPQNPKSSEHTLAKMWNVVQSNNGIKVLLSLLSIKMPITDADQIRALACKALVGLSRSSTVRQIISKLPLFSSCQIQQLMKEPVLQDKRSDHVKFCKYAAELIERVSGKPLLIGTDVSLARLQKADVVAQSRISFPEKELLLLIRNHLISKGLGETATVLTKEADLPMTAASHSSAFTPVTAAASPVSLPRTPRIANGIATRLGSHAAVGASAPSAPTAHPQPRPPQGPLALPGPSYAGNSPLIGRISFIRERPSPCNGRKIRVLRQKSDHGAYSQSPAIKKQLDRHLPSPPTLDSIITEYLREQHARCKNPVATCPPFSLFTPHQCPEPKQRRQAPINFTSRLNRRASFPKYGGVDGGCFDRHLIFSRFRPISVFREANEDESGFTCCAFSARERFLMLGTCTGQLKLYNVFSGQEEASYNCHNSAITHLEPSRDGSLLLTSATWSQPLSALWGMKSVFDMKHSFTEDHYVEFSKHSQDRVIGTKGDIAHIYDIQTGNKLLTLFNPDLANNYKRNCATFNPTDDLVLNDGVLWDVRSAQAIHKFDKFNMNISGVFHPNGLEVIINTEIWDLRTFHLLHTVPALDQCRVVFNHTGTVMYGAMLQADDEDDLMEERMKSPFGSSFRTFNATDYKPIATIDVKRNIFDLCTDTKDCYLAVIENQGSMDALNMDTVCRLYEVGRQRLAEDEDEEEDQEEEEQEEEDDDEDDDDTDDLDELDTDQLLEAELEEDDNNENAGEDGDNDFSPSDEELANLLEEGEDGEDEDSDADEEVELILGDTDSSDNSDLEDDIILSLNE
WDR5: WD repeat-containing protein 5 (WDR5, Homo sapiens, UniProt P61964)
| target | temperature | SYPRO Orange fluorescence [a.u.] |
| --- | --- | --- |
| DCAF1 | 45.4 °C | 13200 |
| DCAF1 | 68.21 °C | 57800 |
| WDR5 | 68.41 °C | 14700 |
| WDR5 | 28.2 °C | 12900 |
| DCAF1 | 57.01 °C | 27200 |
| WDR5 | 61.61 °C | 15100 |
| DCAF1 | 76.41 °C | 48500 |
| WDR5 | 44 °C | 15100 |
| WDR5 | 91.01 °C | 49800 |
| WDR5 | 52.81 °C | 16800 |
| WDR5 | 49.2 °C | 16100 |

Series 6
SMILES: CS(=O)(=O)c1ccc(OC/C(=C/F)CN)cc1.Cl
| target | observed | mode | sample | concentration | inhibition |
| --- | --- | --- | --- | --- | --- |
| Amine oxidase [flavin-containing] B (MAOB, Homo sapiens, UniProt P27338) | enzyme activity | inhibitor | – | 4.6 nM | 7.96% and 1.49% and 2.81% |
| Amine oxidase [flavin-containing] A (MAOA, Homo sapiens, UniProt P21397) | enzyme activity | inhibitor | – | 1.5 nM | -3.01% and -1.67% and 2.41% and -4.62% and 3.67% |
| Amine oxidase [copper-containing] 3 (Mus musculus, UniProt O70423) | – | – | mouse adipose tissue | 5.081e-05 µM | 5.09% |

Series 7
Compound: CCN1/C(=C/C=C2\CCCC(/C=C/C3=[N+](CC)c4ccccc4C3(C)C)=C2NCCCCCCCCN2CCC(Nc3nc4ccccc4n3Cc3ccc(F)cc3)CC2)C(C)(C)c2ccccc21
Cell line: U-87 MG
Concentration: concentration not given
Relative to: DMSO
| refers to | log2 fold change |
| --- | --- |
| PHLDB3 mRNA | 1.33 |
| COL9A2 mRNA | -1.73 |
| SAC3D1 mRNA | -1.31 |
| ASAH2 mRNA | 0.818 |
| OBSL1 mRNA | -1.04 |
| NEIL3 mRNA | -1.88 |
| ANKFN1 mRNA | 2.97 |
| MTMR10 mRNA | 0.922 |
| SERPINB2 mRNA | 1.68 |
| RTKN2 mRNA | -1.49 |
| PANK1 mRNA | -1.14 |
| MDGA1 mRNA | -1.13 |
| SC5D mRNA | 0.924 |
| EFL1 mRNA | 1.26 |
| UACA mRNA | -1.09 |
| DUSP10 mRNA | 1.41 |

Series 8
Compound: Cc1ncsc1-c1ccc(C2(NC(=O)C3CC(O)CN3C(=O)C(NC(=O)c3ccc(COc4c(-c5c(C)c(F)cc6[nH]ncc56)c(C5CC5)cc5c(N6CC7CC6CN7)nc(OC6CCOCC6)nc45)cc3)C(C)(C)C)CC2)cc1 (stereo not drawn)
Cell line: AsPC-1
Method: in-cell ELISA
| concentration | notes | phospho-ERK1/2 level |
| --- | --- | --- |
| 30 nM | individual replicates | 108% and 98.8% and 104% and 102% and 101% |
| 3 µM | per-experiment values | 19.8% and 18.6% and 10.4% |
| 100 nM | individual replicates | 83.7% and 81.3% and 88.5% and 80% and 98.8% and 98.2% |
| 1 µM | individual replicates | 50.9% and 55.4% and 39.1% and 40.9% and 21.7% and 36.4% |

Series 9
Structure (SMILES): COc1cc(-c2nc3ccc(C(=O)NCCCN4CCN(c5cccc(C)c5C)CC4)cc3n2C2CCC2)cc(OC)c1OC
Observed: binding
Method: competition with immobilised ligand
Concentration: 1 µM
| target | remaining binding |
| --- | --- |
| Mitogen-activated protein kinase kinase kinase kinase 5 (MAP4K5, Homo sapiens, UniProt Q9Y4K4) | 93% |
| Muscle, skeletal receptor tyrosine-protein kinase (MUSK, Homo sapiens, UniProt O15146) | 92% |
| Casein kinase II subunit alpha' (CSNK2A2, Homo sapiens, UniProt P19784) | 100% |
| Tyrosine-protein kinase Fer (FER, Homo sapiens, UniProt P16591) | 96% |
| Macrophage colony-stimulating factor 1 receptor (CSF1R, Homo sapiens, UniProt P07333) | 96% |
| SRSF protein kinase 1 (SRPK1, Homo sapiens, UniProt Q96SB4) | 100% |
| Receptor-type tyrosine-protein kinase FLT3 (FLT3, Homo sapiens, UniProt P36888, D835V) | 79% |
| Myotonin-protein kinase (DMPK, Homo sapiens, UniProt Q09013) | 100% |
| Hormonally up-regulated neu tumor-associated kinase (HUNK, Homo sapiens, UniProt P57058) | 100% |
| Serine/threonine-protein kinase BRSK1 (BRSK1, Homo sapiens, UniProt Q8TDC3) | 100% |
| Mitogen-activated protein kinase 4 (MAPK4, Homo sapiens, UniProt P31152) | 100% |
| Ribosomal protein S6 kinase alpha-5, C-terminal kinase domain (RPS6KA5, Homo sapiens, UniProt O75582) | 100% |
| NT-3 growth factor receptor (NTRK3, Homo sapiens, UniProt Q16288) | 100% |
| Serine/threonine-protein kinase Nek10 (NEK10, Homo sapiens, UniProt Q6ZWH5) | 93% |
| cAMP-dependent protein kinase catalytic subunit PRKX (PRKX, Homo sapiens, UniProt P51817) | 89% |
| Testis-specific serine/threonine-protein kinase 3 (TSSK3, Homo sapiens, UniProt Q96PN8) | 89% |
| Dual specificity mitogen-activated protein kinase kinase 5 (MAP2K5, Homo sapiens, UniProt Q13163) | 93% |

Other studies, line by line
| SMILES | target or system | assay | test system | conditions | scale | endpoint | result |
| --- | --- | --- | --- | --- | --- | --- | --- |
| FC(F)(F)c1ccc(C2=NOC3(NC(c4ccccc4)=NO3)N2c2ccccc2)cc1 (stereo not drawn) | Huh-7 | cell growth or viability, ATP luminescence | – | 10 µM, 72 h | – | viability | > 75% |
| CC(C)NC(=O)N1CCC(NC2=Nc3cc(F)ccc3N(CC(F)F)c3ccc(Cl)cc32)C1 (stereo in doubt) | sample B colorectal tumour organoid | – | – | 0.1 µM | relative to: DMSO | viability | 131% |
| Cc1nc(C)c(C=[N+]([O-])C(C)(C)C)nc1C | – | Western blot, refers to: PGC-1α | primary midbrain neurons, rat | 300 µM, unit not given, together with: MPP+ | relative to: β-actin | protein level | 91.4 and 115 and 151 |

Excerpt of the above (series 9):
| target | remaining binding |
| --- | --- |
| Dual specificity mitogen-activated protein kinase kinase 5 (MAP2K5, Homo sapiens, UniProt Q13163) | 93% |
| Myotonin-protein kinase (DMPK, Homo sapiens, UniProt Q09013) | 100% |
| Casein kinase II subunit alpha' (CSNK2A2, Homo sapiens, UniProt P19784) | 100% |
| Ribosomal protein S6 kinase alpha-5, C-terminal kinase domain (RPS6KA5, Homo sapiens, UniProt O75582) | 100% |
| Serine/threonine-protein kinase Nek10 (NEK10, Homo sapiens, UniProt Q6ZWH5) | 93% |
| SRSF protein kinase 1 (SRPK1, Homo sapiens, UniProt Q96SB4) | 100% |
| Mitogen-activated protein kinase 4 (MAPK4, Homo sapiens, UniProt P31152) | 100% |
| Mitogen-activated protein kinase kinase kinase kinase 5 (MAP4K5, Homo sapiens, UniProt Q9Y4K4) | 93% |
